Measured values collected from several papers.
Numbered parts are unrelated; each lists some results of a single study. Changes are numbered by the printed parent chain.

Study 1
Target: CCNB3, cyclin fold, Cln2 fusion (human)
Method: yeast growth competition, sequencing
Sample: yeast
Setting: weak parent motif
Relative to: not given
Direction: higher = stronger binding
Parent: WEE1 docking peptide (human); HKTFRKLRLFDTP
`HKTFRKLQLFDTP [R8Q]` — result for “normalised enrichment score”: 0.568.
Under “normalised enrichment score”, `HKTFRKLRLFQTP [D11Q]` is recorded as 1.31.
`HKTFRKLRLFDTT [P13T]` — result for “normalised enrichment score”: 0.573.
Under “normalised enrichment score”, `HKTVRKLRLFDTP [F4V]` is recorded as 0.29.
`HKTFRWLRLFDTP [K6W]` — result for “normalised enrichment score”: 0.495.
`HKAFRKLRLFDTP [T3A]` — result for “normalised enrichment score”: -0.193.
Under “normalised enrichment score”, `HKTWRKLRLFDTP [F4W]` is recorded as 0.694.
Under “normalised enrichment score”, `HKTFRKLRGFDTP [L9G]` is recorded as 0.483.
Under “normalised enrichment score”, `HKTFRKLRLYDTP [F10Y]` is recorded as -0.398.
`HKQFRKLRLFDTP [T3Q]` — result for “normalised enrichment score”: -0.105.
For `HKTFRKYRLFDTP [L7Y]`, “normalised enrichment score” read 0.392.
Under “normalised enrichment score”, `HKTFFKLRLFDTP [R5F]` is recorded as -0.0699.
For `CKTFRKLRLFDTP [H1C]`, “normalised enrichment score” read 0.0966.
For `HLTFRKLRLFDTP [K2L]`, “normalised enrichment score” read 0.436.
`HCTFRKLRLFDTP [K2C]`: “normalised enrichment score” -0.0161.
`HKTFRKLRLSDTP [F10S]`: “normalised enrichment score” -0.0491.
For `HKTFRKMRLFDTP [L7M]`, “normalised enrichment score” read -0.588.
`HKTFRKCRLFDTP [L7C]` — result for “normalised enrichment score”: 0.887.
`SKTFRKLRLFDTP [H1S]` — result for “normalised enrichment score”: 0.465.
`HKTFRKLRLFDTS [P13S]`: “normalised enrichment score” 0.0754.
`HKTPRKLRLFDTP [F4P]` — result for “normalised enrichment score”: -0.0211.
Under “normalised enrichment score”, `HKTFRKLRLFDTW [P13W]` is recorded as -0.0465.
`HKTFKKLRFFDTP [R5K L9F]`: “normalised enrichment score” -0.441.
`HKTDRKLRLFDTP [F4D]`: “normalised enrichment score” 0.0989.
`HATFRKLRLFDTP [K2A]`: “normalised enrichment score” 0.244.

Study 2
Target: Centromere-binding protein 1, full length, N-terminal tag (CBF1, Saccharomyces cerevisiae, UniProt P17106, residues 1-351)
Chain of UniProt P17106 (whole entry, looked up): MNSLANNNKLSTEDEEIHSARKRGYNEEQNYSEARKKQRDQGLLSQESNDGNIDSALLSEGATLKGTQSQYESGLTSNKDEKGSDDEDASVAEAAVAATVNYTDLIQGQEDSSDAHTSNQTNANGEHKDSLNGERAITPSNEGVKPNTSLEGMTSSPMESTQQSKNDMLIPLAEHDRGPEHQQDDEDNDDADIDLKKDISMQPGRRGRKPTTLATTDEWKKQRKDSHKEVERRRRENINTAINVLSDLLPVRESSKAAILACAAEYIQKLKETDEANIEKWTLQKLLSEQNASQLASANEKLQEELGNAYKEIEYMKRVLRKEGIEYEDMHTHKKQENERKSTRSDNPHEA
Method: protein-binding microarray
Form: double-stranded DNA, one strand shown
Sample: in vitro
Tested at: 0.8 µM
Setting: whole 60-bp probe, no competitor
Direction: higher = stronger binding
For `TGTACGAAGCTATTGCACGCTATTATAGTAGTTAGGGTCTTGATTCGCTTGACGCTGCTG`, the fluorescence intensity was 525 a.u.
`GAATGTCTTTTTCGCCACATGTAATATCTGTAGTAGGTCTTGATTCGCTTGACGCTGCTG` has a fluorescence intensity of 680 a.u.
For `GAACTTTCTGGCAGGCACGCTATGATGTGCTAATAGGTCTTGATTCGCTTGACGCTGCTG`, the fluorescence intensity was 545 a.u.
With `GAACCCGAATAAGGTCACGTCGATTTAAATGTTTAGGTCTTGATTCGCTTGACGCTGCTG` the fluorescence intensity was 1360 a.u.
With `TGTACGAAGCTATGTCACCATCTTATAGTAGTTAGGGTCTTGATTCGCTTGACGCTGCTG` the fluorescence intensity was 501 a.u.
With `TGTACGAAGCTATCTCATATGATTATAGTAGTTAGGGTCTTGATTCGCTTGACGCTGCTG` the fluorescence intensity was 529 a.u.
`CTAAAGCCTAAGTATCACGCTAATTGAAGTTTTTTCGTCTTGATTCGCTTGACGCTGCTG` has a fluorescence intensity of 536 a.u.
For `CTACGACTGCGTGCGTGCGTGATTGGTAATGCATTCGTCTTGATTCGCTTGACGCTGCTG`, the fluorescence intensity was 846 a.u.
The fluorescence intensity of `CTACTTGGAATTTTTCACATGTTTGCAGTGAATTTCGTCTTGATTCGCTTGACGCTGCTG` is reported as 660 a.u.
`GAAAATTATTTCTTTCACATGATTAAAATTATATAGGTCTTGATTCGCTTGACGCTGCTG` gave a fluorescence intensity of 2320 a.u.
`CTACCGACGAGGCTTACCGTGATCCCTCTCCAGTTCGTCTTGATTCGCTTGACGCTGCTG` gave a fluorescence intensity of 525 a.u.
`GAATAACACATTGGTAGTGTGACTACTAGTTGATAGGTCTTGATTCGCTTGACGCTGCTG` gave a fluorescence intensity of 717 a.u.
With `TGTACGAAGCTATAGCTCATGCATATAGTAGTTAGGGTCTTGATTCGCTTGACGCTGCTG` the fluorescence intensity was 538 a.u.
For `GAAGTGTGAACTCTTCACATGAGAAGGGAATAATAGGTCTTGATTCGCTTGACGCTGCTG`, the fluorescence intensity was 589 a.u.
For `CTACGTATATCACATCACGTTTACGCGTATGGTTTCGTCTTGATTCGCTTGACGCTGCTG`, the fluorescence intensity was 1690 a.u.
`CTACCTTTCTCAATTCATGTGGCTTCAAACATTTTCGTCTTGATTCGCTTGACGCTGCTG` has a fluorescence intensity of 619 a.u.
For `CTAGTACTGATTACGTCCGTGATTCGAAAAGCATTCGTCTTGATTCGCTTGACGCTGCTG`, the fluorescence intensity was 716 a.u.
With `GAAAGTTCATCGTCGATCATGATGATTATCAGCTAGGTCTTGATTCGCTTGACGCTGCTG` the fluorescence intensity was 514 a.u.
The fluorescence intensity of `GAATTGGAGTTCCATCACCATCAATATAGCAACTAGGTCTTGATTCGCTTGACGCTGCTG` is reported as 514 a.u.

Study 3
Target: RNA binding protein fox-1 homolog 2, RRM domain, GST-SBP tag (RBFOX2, Homo sapiens, UniProt O43251-10, residues 100-194)
Method: RNA Bind-n-Seq
Form: RNA
Sample: in vitro
Tested at: 365 nM
Setting: natural RNA segment, single round, ends assumed
Relative to: no-protein control
Direction: higher = stronger binding
Construct (chain): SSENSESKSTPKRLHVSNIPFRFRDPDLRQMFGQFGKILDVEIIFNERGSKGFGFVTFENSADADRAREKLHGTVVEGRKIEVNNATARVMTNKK
`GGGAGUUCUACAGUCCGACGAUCAGAGAAGCCAUCUCUCAAGAGGCAAAUAGCAUGAUCUACAUAGUUAAUACAUCUACCUUCCCUUAUACUUUCUUCUAAGGCCUGAUUUUCUUUGCUUGGGAAGUGGAUUAUGGAAUUCUCGGGUGCCAA`: “RBNS enrichment (R)” 0.948.
`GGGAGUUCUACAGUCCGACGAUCUGGUACCUGAUACCUGUUGGAGAUUAUGUGACUGCUGGCAUGUCUUAGAUAUCUUAGUUAUCUUUUGUUGACAGAUGAAUGGGAAUUAACAAUAGCUUUAUGUCUUUGUGUGGAAUUCUCGGGUGCCAA` — result for “RBNS enrichment (R)”: 1.87.
Under “RBNS enrichment (R)”, `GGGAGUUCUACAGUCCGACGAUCAAUCCUGUAUUUAAAGGAAACCUUAAUUAUCAAUGGAUUUAUGAAGGAAAGUUAAAAACAAAUAUGCACAGUACAAAAUAGAUCUGUGGCUUUUUUUUUUUAAAGUAAGAUGGAAUUCUCGGGUGCCAA` is recorded as 0.414.
For `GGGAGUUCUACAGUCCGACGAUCAUUUCAUAUACUUCCGUCUCGAUGCUGUUAACAACUUCUGAUAACAUGGAAAAUUCAAGGAUUGUUUAAAGGUCUGAUGAUCACACACAAAAUGUAAUUCCGGUUAUUUAUGGAAUUCUCGGGUGCCAA`, “RBNS enrichment (R)” read 0.383.
For `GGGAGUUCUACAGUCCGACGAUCCUAAUCAUUCCACAUUUAUUGAGCUCCACCUGUGUGUAUGUGUACCCAAGCACACAUGUGUGAAGGGCUAUAGCCAAAGUAUUUUUACUAGCCUGUAUGAAAUCACUAGUUGGAAUUCUCGGGUGCCAA`, “RBNS enrichment (R)” read 0.886.
Under “RBNS enrichment (R)”, `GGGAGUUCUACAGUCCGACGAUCAUCUGAGACCCACCCAUAUCCUAGCUUUUAACUGUCUUCGCUCCACCCUCAAAGAUGCUACUGGGCUUCCUGUGCAUCGCAUUGCUAAAGAGAACUGAUUUCCUAGCAUUUGGAAUUCUCGGGUGCCAA` is recorded as 1.88.
`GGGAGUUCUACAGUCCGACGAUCUCAUCUGCAGGGUCCUGUGCCUCUGAAGUUCUAGCCAUGAGGUUUCCAGGUAGGACAGCUGCUCCCCAAGCCUCCUGAGGACACAGGAAGAGACGGAAGGAGCACCUUGAUGGAAUUCUCGGGUGCCAA`: “RBNS enrichment (R)” 0.438.
Under “RBNS enrichment (R)”, `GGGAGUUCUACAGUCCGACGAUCGUCCCGAGUGGGGGCCGUGCCUUUGCCCAGACCCUGCACUUUCAACCAGGCCAGUCCGGCUCUGGGGAGCAGGGGCCUCCCCGGCAACAGCCCCAGGGGCCUUGAGGGUCUGGAAUUCUCGGGUGCCAA` is recorded as 0.36.

Study 4
Target: PABPC1L2, full length, GST fusion (mouse, UniProt A0ABA7IW68)
Method: RNAcompete
Form: RNA
Sample: in vitro
Tested at: 20 nM
Setting: 7-mer, probes averaged, single round
Relative to: mean of 7-mers
Direction: higher = stronger binding
For `GUACUGA`, the 7-mer Z-score was -0.161.
With `GGAGUAC` the 7-mer Z-score was -0.162.
For `CCUGAUC`, the 7-mer Z-score was -0.382.
`CACAUAC` has a 7-mer Z-score of -0.244.
For `UAGGGAC`, the 7-mer Z-score was 0.18.
With `AUUGCCU` the 7-mer Z-score was -0.151.
The 7-mer Z-score of `GUAGACU` is reported as -0.0482.
With `CGCGUUU` the 7-mer Z-score was -0.492.
For `AUCCACU`, the 7-mer Z-score was -0.148.
For `AAUAGCC`, the 7-mer Z-score was 0.323.
`UAACAGG` has a 7-mer Z-score of 0.0913.
With `GGAGGUG` the 7-mer Z-score was 0.216.
`CUUUCCA` gave a 7-mer Z-score of -0.311.
`CGCAUGA` has a 7-mer Z-score of -0.0482.
`CGGAGUC` has a 7-mer Z-score of -0.0373.
For `GGAGAUG`, the 7-mer Z-score was 0.0823.
`AUGCGAA` has a 7-mer Z-score of 0.227.
`CCUGCAU` has a 7-mer Z-score of -0.255.
For `ACGCCUU`, the 7-mer Z-score was -0.329.
With `UGCAGGA` the 7-mer Z-score was 0.2.

Repeated from above (study 3):
`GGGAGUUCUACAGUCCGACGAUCUGGUACCUGAUACCUGUUGGAGAUUAUGUGACUGCUGGCAUGUCUUAGAUAUCUUAGUUAUCUUUUGUUGACAGAUGAAUGGGAAUUAACAAUAGCUUUAUGUCUUUGUGUGGAAUUCUCGGGUGCCAA` — result for “RBNS enrichment (R)”: 1.87.
For `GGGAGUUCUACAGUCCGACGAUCCUAAUCAUUCCACAUUUAUUGAGCUCCACCUGUGUGUAUGUGUACCCAAGCACACAUGUGUGAAGGGCUAUAGCCAAAGUAUUUUUACUAGCCUGUAUGAAAUCACUAGUUGGAAUUCUCGGGUGCCAA`, “RBNS enrichment (R)” read 0.886.
For `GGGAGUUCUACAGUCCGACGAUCAUUUCAUAUACUUCCGUCUCGAUGCUGUUAACAACUUCUGAUAACAUGGAAAAUUCAAGGAUUGUUUAAAGGUCUGAUGAUCACACACAAAAUGUAAUUCCGGUUAUUUAUGGAAUUCUCGGGUGCCAA`, “RBNS enrichment (R)” read 0.383.
Under “RBNS enrichment (R)”, `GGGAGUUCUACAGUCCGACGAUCAUCUGAGACCCACCCAUAUCCUAGCUUUUAACUGUCUUCGCUCCACCCUCAAAGAUGCUACUGGGCUUCCUGUGCAUCGCAUUGCUAAAGAGAACUGAUUUCCUAGCAUUUGGAAUUCUCGGGUGCCAA` is recorded as 1.88.
`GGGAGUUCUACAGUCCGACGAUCUCAUCUGCAGGGUCCUGUGCCUCUGAAGUUCUAGCCAUGAGGUUUCCAGGUAGGACAGCUGCUCCCCAAGCCUCCUGAGGACACAGGAAGAGACGGAAGGAGCACCUUGAUGGAAUUCUCGGGUGCCAA`: “RBNS enrichment (R)” 0.438.
`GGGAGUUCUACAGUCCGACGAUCAGAGAAGCCAUCUCUCAAGAGGCAAAUAGCAUGAUCUACAUAGUUAAUACAUCUACCUUCCCUUAUACUUUCUUCUAAGGCCUGAUUUUCUUUGCUUGGGAAGUGGAUUAUGGAAUUCUCGGGUGCCAA`: “RBNS enrichment (R)” 0.948.
